Published values gathered from unrelated publications.
A part holds a random share of what one study measured. Substitutions count along the parent as printed.

Set 1 — technique: DHFR PCA, deep sequencing; sample: yeast; with: (+)-ABA 710 µM; reference: wild-type fitted maximum; direction: higher = stronger binding; endpoint: relative binding score
Target: ABI1, truncated, D143A, DHFR fusion (Arabidopsis thaliana)
Setting: methotrexate growth selection, single substitutions
Starting sequence: PYL1, truncated, DHFR fusion (Arabidopsis thaliana); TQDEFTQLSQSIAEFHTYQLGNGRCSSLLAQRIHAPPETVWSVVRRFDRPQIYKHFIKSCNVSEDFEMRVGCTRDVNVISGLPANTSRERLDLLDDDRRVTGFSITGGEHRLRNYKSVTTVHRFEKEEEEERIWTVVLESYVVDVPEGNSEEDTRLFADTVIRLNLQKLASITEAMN
E147K: 96.8%
M176F: 89.4%
F15G: 43.2%
G102W: 21.1%
R111F: 69.6%
D92I: 85.6%
R74D: -2.23%
H34L: 98.8%
Q7C: 105%
F66N: 87.6%
I105V: 105%
G21L: 95.6%
E151A: 103%
E139N: 95.6%
D144P: 82.2%
A13T: 95.4%
D3Q: 96.4%
R163H: 91.7%

Set 2 — technique: RNA Bind-n-Seq; form: RNA; sample: in vitro; tested at: not given; reference: input RNA pool; direction: higher = stronger binding; endpoint: bound/input enrichment
Target: RING finger protein unkempt homolog, zinc fingers 1-6, GST-SBP tag (UNK, Homo sapiens, UniProt Q9C0B0, residues 30-357)
Setting: RNA with constant flanks, human and mouse sites, ends assumed
All sequences stand within: GGGAGUUCUACAGUCCGACGAUC … CAACAGAGGAUUGAGCAUCA
Target sequence (chain): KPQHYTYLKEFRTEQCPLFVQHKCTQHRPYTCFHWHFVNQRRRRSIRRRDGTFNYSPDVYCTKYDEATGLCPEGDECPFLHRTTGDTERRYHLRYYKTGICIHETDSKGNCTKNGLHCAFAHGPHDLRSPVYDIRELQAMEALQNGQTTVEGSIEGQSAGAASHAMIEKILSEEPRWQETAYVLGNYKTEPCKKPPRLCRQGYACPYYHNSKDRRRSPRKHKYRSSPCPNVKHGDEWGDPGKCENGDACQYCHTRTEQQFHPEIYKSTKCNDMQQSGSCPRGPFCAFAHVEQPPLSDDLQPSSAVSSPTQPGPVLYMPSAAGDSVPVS
AAUAACGUCUAUUGAUGUAGAGGGUCAAAUGAAGAACAAAUAGUAGCUGCUGCUACUUGACUGGAAAGGUAAAUGUGUUUACAUCAUGCUGUGGAACAGCUCUAAACAGUCUAUGUAGAA: 0.281 ratio
ACGAGCAGGCCCGGACCUCGAGACCUAAAGCUGGGGAUCCCAAGUCCGUUCUACAGCUAGAGAUCACUAUGUGGCCAUGGAAUCCUCGGGCGAUCCCUGUGGACGCCACCUCACUCCGGG: 0.0946 ratio
AGAAAAUUGAAGCUGUGUAAAUGAGUAUGGAAGAUUAUGAUUUCCUGUUCAAAAUUGUUUUAAUUGGCAACGCUGGUGUGGGGAAGACGUGCCUCGUCCGAAGAUUCACUCAGGGUCUUU: 0.213 ratio
GAGAAAAUUAAUAAAGAAGCAGUGUGGUUCCUCUCCAACAUCACUGCAGGAAAUCAGCAGCAGGUACAGGCAGUAAUUGAUGCCAAUCUUGUACCAAUGAUAAUACACCUUUUGGAUAAG: 0.878 ratio
GAGAGCCCAACCACUCCUCUGCUAGAUGACAUGGAUGGCUCUCAAGACAGCCCUAUCUUUAUGUAUGCCCCUGAGUUCAAGUUCAUGCCACCACCGACUUAUACUGAGGUGGAUCCCUGC: 0.133 ratio
CAAAAAAUUUAUAACAAGAUCCCAGGGACGAGCAACAACGGGUUAGAGGAGGAGUUUAAGAAAUUAACUUCAAUCAAAAUCCAGAAUGACAAGAUGCGCACGGGAAACCUUCCAGCCAAC: 0.173 ratio
CCGCCAUGAAUGAGGAAUACGACGUGAUCGUGCUGGGCACCGGCCUGACGUUAUACAAAAGGUUUAAAUUACCAGGACAACCGCCAGCAUCAAUGGGAAGAGGAAGAGACUGGAAUGUUG: 0.388 ratio
GACAAGUUUGAAAAACUUGUACAGACUGUGAGAGAUUAUCAUGCAACUUGGAAAACUGUUAGUAAUAAAUUAAAAAAUCAUCCUGAUUAUGAAGAAUAUAUCAACUUAGAGGGAACAAGA: 7.8 ratio
CGCUCUCAGCUGAAUGACAUCUCAUCUUUUAAGAAUAUCUACAGAUAUGCCUUUGAUUUUGCAAGGGAUAAAGAUCAGAGAAGCCUUGAUAUUGAUACUGCGAAGUCUAUGUUAGCUCUG: 0.109 ratio
UGAUUGGAUUAUUUGAAUGAAAUUUGCACACAACGAUUGAGUUGAACCUGCUUACUAUUUUUAGGAUUGUUUUAUUGUACUAACAACUUUUAAAGACUAUGAAGUAAAUAUUUCACGUAG: 1.17 ratio
CUUGGAACAGGUAAAAUGCUUUUUCUUAUUAAUAUAAUUAUAAAACAGUAUUUUAUGUAACAGCUAUUCCCAUAUUCUAGGAGUGGCCUAAGAAAUGCGUGUUUCAGUGACUAGAUUAUA: 0.938 ratio

Set 3 — technique: competition protein-binding microarray; form: double-stranded DNA, one strand shown; sample: in vitro; tested at: 2 µM; with: Pho4 competitor, 0.05 µM; direction: higher = stronger binding; endpoint: fluorescence intensity; all sequences stand within: … GTCTTGATTCGCTTGACGCTGCTG
Target: Centromere-binding protein 1, full length, His-tagged (CBF1, Saccharomyces cerevisiae, UniProt P17106, residues 1-351)
Sequence of UniProt P17106 (whole entry, looked up): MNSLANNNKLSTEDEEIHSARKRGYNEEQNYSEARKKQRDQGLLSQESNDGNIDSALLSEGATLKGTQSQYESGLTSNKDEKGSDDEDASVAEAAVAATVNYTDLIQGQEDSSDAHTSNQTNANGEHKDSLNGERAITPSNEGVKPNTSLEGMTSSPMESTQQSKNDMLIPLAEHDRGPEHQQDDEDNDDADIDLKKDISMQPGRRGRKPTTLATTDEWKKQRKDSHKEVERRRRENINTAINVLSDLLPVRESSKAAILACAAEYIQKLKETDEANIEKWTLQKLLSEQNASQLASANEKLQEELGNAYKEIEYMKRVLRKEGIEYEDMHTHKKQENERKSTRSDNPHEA
Setting: whole 60-bp probe, lowest competitor level
AAATTACTAAGTTTTCACGTGGTCTACCCCGTATGA: 1460 a.u.
CAGGGTATAGACCGCTGAGGCAAGTGCCGTTAATGG: 52 a.u.
TGCGCAACAACTTGATTCGTGGGTGTATGTCTAGAA: 73.1 a.u.
TCCCATTGCATTACCCACGTGTGGAAGCGTCTTCCA: 580 a.u.
CTTCTGTAAATTTGACGCGTGGGTGGACGCGCCCCG: 92.3 a.u.
AAAGCGGTAATTTTTCACGTGTCCTCACATATCTAT: 1480 a.u.
CATACCCAACCTTGAGCGGTGGGTGAAGATATTTGT: 63.1 a.u.
TTCAACCCTTCCAACGCCGTGACGGGCCCTCCGGAC: 41.3 a.u.
CATACCCAACCTTGGTGCGTGGGTGAAGATATTTGT: 68.8 a.u.
TATATTTTTCAACTCCACGTGATGGCAAGCCCAACC: 2420 a.u.
CTTTCCCGATCTTGCTTAGTGGGTGTAGCACATTTG: 71.3 a.u.
CTTTCCCGATCTTGTGTAGTGGGTGTAGCACATTTG: 69.9 a.u.
CGGGGTTAAGTTTGCATAGTGGGTGGCTTGCAGCAG: 70.3 a.u.
CTTTCCGGTTCGGGCCAGGTGACGGAAATCGTTCTG: 84.2 a.u.
GGAAAGCCTATTTCTCACGTTTTCCGGCACTTAATG: 149 a.u.
CGTCCTAGTGATTGTCACCTGACTTCCATGAGGAAG: 1680 a.u.
TTAGATTAAGTAGGACGCATGATGTTGAGCTCTTTT: 67.4 a.u.
CGTATTTGTCACCATCACGTGCTTTAAAATCTTCAG: 7830 a.u.
TCTCAATCTCCGTCCAATGTGACGCCCACTACGATT: 75.6 a.u.

Set 4 — technique: RNA Bind-n-Seq; form: RNA; sample: in vitro; tested at: 365 nM; reference: no-protein control; direction: higher = stronger binding; endpoint: RBNS enrichment (R)
Target: RNA binding protein fox-1 homolog 2, RRM domain, GST-SBP tag (RBFOX2, Homo sapiens, UniProt O43251-10, residues 100-194)
Setting: natural RNA segment, single round, ends assumed
All sequences stand within: GGGAGUUCUACAGUCCGACGAUC … UGGAAUUCUCGGGUGCCAA
Residues (chain): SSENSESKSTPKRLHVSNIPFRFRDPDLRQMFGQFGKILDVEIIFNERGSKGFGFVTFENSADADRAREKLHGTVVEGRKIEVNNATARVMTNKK
GCACAUUUGUACAUAUACUUAAUGUUUUCAAGUGCCUUAAUUGUUUAAAAUCUCUGGCUUCAAAGUUUCUUGGGGAAAGGUCGGUUUACCUCACAUUUUUUGUUUCCAUU: 0.576
ACAGAAGCAUAGACAAGUAUAUGAGCCCUUAUGUCCUUAAUGCCAAUCAACUAGAUUGACCUAGGUUAAAAUUUCAAAAGGCUCAUUUUCUCCCAAAGCUAAAUCUUUAU: 0.403
CUUACUUGGCCAUGGGGUUGCUUGUUUAAAUAUUAAACUUACCCUUGUGACCUCUGUCCACAGUCAUUUGAAGGAAGGAUUUCCUUUGGUUUUAGCUAUGCUUAUGAAAU: 0.615
GAGAAAAUAAUUUUUCUCAUUUAAUUAUAGAAAUUACCUUCAAACAGAUUUUGUGUUCUUUGGCCCUUCAAAUACUGGUGUUACAUUGUUGCUGCAGAUAAAUGAUGAUU: 0.707
AGCACCCCCAGUGCUCGCUCAUGGGAAAUAUCAGCCCUAGGCUGGUUGUUUUUACAAAUCUCUCUCAGAUAUAUUAUUUUCAUGACAAAAAUGAAGGAGCUUUGUAAAUU: 0.409
UUGCUCUAAGGAAGAUUAAAAAAAGAUAGGGAAAAGGGGGAAACUUCUUUGAAAAAUGAAACAUCUGUUACAUUAAUGUCUAAUUAUAAAAUUUUAAUCCUUACUGCAUU: 0.399
CAUCUCUCUUCUGUACCACUAGAGGGAGCUCUGAUGCAGCUGGAGAGCAGCGCUCAAGGCUCUCGCCCCUCCCCUCCCUAACCCUUACCUUCAGUCUCCACCAGCCUGAA: 0.307
CUGUCCCUCUACCAGUUACCUUAGUUGGGGAGCCAGUGCGUGUCACACCAGAUAAGCGGUUGUGUGUCCGCUUUUGUUAUAUAGGGCAGGAUAGAAUGCAUGUCGGGUAA: 17.7
UUCCUAGCUUUCAGCCAUUAGAAACUCUUUUAAUAGUUCCUUUUGAGUUGUGAGCUCUUCUUCUGUAGCCCUGAAGGGACACUGUAUUCUGUAUGAAUGCAUGGCAUGAG: 3.92
GAUUUGCUACCAGAGCAAACUCAGUUCUGCCUGUCCCUGAAGUAUGACCAGGAGACAGCCAGUUUCAAGGGCUGUCUGCCUAGCAGAGGCCAAGUGGUUUGAAGUUAUUU: 0.755
UUCUCCGGGAUGCAUAGAUUCAUGAUUUAUCUACUUUUGAAAUGUGGGCUUCUUCAUCUUUACGUUCUAGACUCCAAUUUUGUCCAAUGUAUAUAGAAUCUCCAUAUUAA: 0.418
UCUUUUACAGGCUUUGUCCUGAUCGUAGCAUAGAGAGAAUAGCUGGAUAUUUAACUUGUAUUCCAUUUUCCUCUGCCAGCGUUAGGUUAACUCCGUAAAAAGUGAUUCAG: 0.353

Excerpt of the above (set 3):
CATACCCAACCTTGAGCGGTGGGTGAAGATATTTGT: 63.1 a.u.
TTCAACCCTTCCAACGCCGTGACGGGCCCTCCGGAC: 41.3 a.u.
CATACCCAACCTTGGTGCGTGGGTGAAGATATTTGT: 68.8 a.u.
TATATTTTTCAACTCCACGTGATGGCAAGCCCAACC: 2420 a.u.
CTTTCCCGATCTTGCTTAGTGGGTGTAGCACATTTG: 71.3 a.u.
CTTTCCCGATCTTGTGTAGTGGGTGTAGCACATTTG: 69.9 a.u.
CGGGGTTAAGTTTGCATAGTGGGTGGCTTGCAGCAG: 70.3 a.u.
CTTTCCGGTTCGGGCCAGGTGACGGAAATCGTTCTG: 84.2 a.u.
GGAAAGCCTATTTCTCACGTTTTCCGGCACTTAATG: 149 a.u.
CGTCCTAGTGATTGTCACCTGACTTCCATGAGGAAG: 1680 a.u.
